Experimental data collected from several papers.
Compare with care: the assays were run in different laboratories. pIC50: −log10 of the molar value.
kasA: 3-oxoacyl-[acyl-carrier-protein] synthase 1 (kasA, Mycobacterium tuberculosis, UniProt P9WQD9)

The tumour uptake of `CC(C)C[C@@H]1NC(=O)[C@H](CC(C)C)NC(=O)[C@H](Cc2c[nH]c3ccccc23)NC(=O)[C@H](CO)NC(=O)[C@H](Cc2c[nH]c3ccccc23)NC(=O)[C@@H]2CCCN2C(=O)[C@H](CC(C)C)NC(=O)[C@H](Cc2c[nH]cn2)NC(=O)[C@@H]2CCCN2C(=O)[C@H](CC(N)=O)NC(=O)[C@H](C)NC(=O)[C@H](Cc2ccc(O)cc2)NC(=O)[C@H](CS)NC(=O)[C@H](CCCCNC(=O)CN2CCN(CC(=O)O)CCN(CC(=O)O)CCN(CC(=O)O)CC2)NC1=O` [lutetium-177 labelled] is reported as 4.79 %ID (BALB/c mice female 4T1 tumour, 4T1 tumour; intravenous, 3.7 MBq, 96 h, unblocked).
`O=C(c1ccc(Cl)cc1)N1CCN2C(=O)N(OC(=O)N3CCOc4ccccc43)C(=O)C2C1` (stereo not drawn): “mean protein ratio” 1.13 (Acylamino-acid-releasing enzyme (APEH, Homo sapiens, UniProt P13798); MS-based ABPP; SW-620 conditioned medium; 10 µM, 1 h, 37 °C; reference: treated over control).
`CC[C@H](C)[C@H](NC(=O)[C@H](Cc1ccccc1)NC(=O)[C@H](CCC(=O)O)NC(=O)[C@H](CCCNC(=N)N)NC(=O)[C@H](C)NC(=O)[C@H](C)NC(=O)[C@H](CCC(N)=O)NC(=O)[C@H](CCC(=O)O)NC(=O)[C@H](CCC(=O)O)NC(=O)[C@H](CC(C)C)NC(=O)[C@H](Cc1ccc(O)cc1)NC(=O)[C@H](CO)NC(=O)[C@H](CO)NC(=O)[C@@H](NC(=O)[C@H](CC(=O)O)NC(=O)[C@H](CO)NC(=O)[C@@H](NC(=O)[C@H](Cc1ccccc1)NC(=O)[C@@H](NC(=O)CNC(=O)[C@H](CCC(=O)O)NC(=O)[C@H](C)NC(=O)CCc1c[nH]cn1)[C@@H](C)O)[C@@H](C)O)C(C)C)C(=O)N[C@@H](C)C(=O)N[C@@H](Cc1c[nH]c2ccccc12)C(=O)N[C@@H](CC(C)C)C(=O)N[C@H](C(=O)N[C@@H](CCCNC(=N)N)C(=O)NCC(=O)N[C@@H](CCCNC(=N)N)C(=O)N[C@@H](CCCCNC(=O)COCCOCCNC(=O)COCCOCCNC(=O)CC[C@H](NC(=O)CCCCCCCCCCCCCCCCC(=O)O)C(=O)O)C(=O)NCC(=O)NCC(=O)N[C@@H](CO)C(=O)N[C@@H](CCCCNc1c(NCCCCCN(O)C(=O)CCC(=O)NCCCCCN(O)C(=O)CCC(=O)NCCCCCN(O)C(C)=O)c(=O)c1=O)C(=O)O)C(C)C` [zirconium-89 labelled] gave a tissue uptake of 0.11 %ID/g (ex vivo gamma counting; rat, femur; subcutaneous, 3 nmol/kg, 72 h, together with: [89Zr]-labelled peptide).
`O=C(Nc1cnccc1Cl)N1CCN(Cc2ccc3c(c2)OC(F)(F)O3)CC1` has an inhibition of 15% (IP3 receptor, rat; binding; 10 µM, together with: [3H]IP3).
`CC[C@H](C)[C@H](NC(=O)CNC(=O)[C@@H](N)CCCCN)C(=O)N[C@@H](CC(C)C)C(=O)N[C@@H](CCCCN)C(=O)N[C@@H](CCCNC(=N)N)C(=O)N[C@@H](CCC(=O)O)C(=O)N[C@@H](CCCCN)C(=O)N[C@@H](CCCNC(=N)N)C(=O)N[C@@H](CC(C)C)C(=O)N[C@@H](CCCNC(=N)N)C(=O)N[C@@H](CCCNC(=N)N)C(=O)N[C@@H](CCCCN)C(=O)N[C@@H](CC(N)=O)C(=O)N[C@H](C(=O)N[C@@H](Cc1c[nH]cn1)C(=O)N[C@@H](Cc1c[nH]c2ccccc12)C(=O)N1CCC[C@H]1C(=O)N[C@@H](CCC(=O)O)C(=O)N[C@@H](CCC(=O)O)C(=O)NCC(=O)N[C@@H](CCCCN)C(=O)N[C@@H](CC(C)C)C(=O)N[C@@H](CCCNC(=N)N)C(=O)N[C@@H](CCC(=O)O)C(=O)N[C@@H](Cc1ccc(O)cc1)C(=O)N[C@@H](Cc1ccccc1)C(=O)N[C@@H](Cc1ccc(O)cc1)C(=O)N[C@@H](Cc1ccccc1)C(=O)N[C@@H](CCC(=O)O)C(=O)N[C@@H](CC(C)C)C(=O)N[C@@H](CC(=O)O)C(=O)N[C@@H](CCC(=O)O)C(=O)N[C@@H](C)C(=O)N[C@@H](CCC(=O)O)C(=O)N[C@@H](CCCNC(=N)N)C(=O)N[C@H](C(=O)N[C@@H](CC(N)=O)C(=O)N[C@H](C(=O)O)C(C)C)C(C)C)C(C)C`: “log2 fold change” -0.0663 (HeLa and HEK-293T cells; phosphatase bead binding, competitive inhibitor, PIB pulldown iBAQ LC-MS/MS, refers to: FGFR1OP2; concentration not given; reference: untreated control).
Under “log2 fold change”, `Oc1ccc2c3c1O[C@H]1[C@@H](O)CC[C@@]4(O)[C@@H](C2)N(CC2CCC2)CC[C@]314` is recorded as -0.22 (Probable G-protein coupled receptor 149 (GPR149, Homo sapiens, UniProt Q86SP6); β-arrestin recruitment, TANGO luminescence, refers to: GPR149; concentration not given; reference: basal luminescence).
The tissue uptake of `C[C@@H](O)[C@@H](CO)NC(=O)[C@@H](CCCNC(=N)N)NC(=O)[C@@H]1CCCN1C(=O)[C@@H]1CSSC[C@H](NC(=O)[C@H](Cc2ccccc2)NC(=O)CN2CCN(CC(=O)O)CCN(CC(=O)O)CCN(CC(=O)O)CC2)C(=O)N[C@@H](Cc2ccc(O)cc2)C(=O)N[C@@H](Cc2ccccc2)C(=O)N[C@@H](CCC(N)=O)C(=O)N[C@@H](CC(N)=O)C(=O)N1` [gallium-68 labelled] is reported as 0.22 %ID/g (Wistar rat, healthy, Parotid gland; intravenous, 8 MBq, 30 min).
With `COc1cc(Nc2ncc(F)c(Nc3ccc4c(n3)NC(=O)C(C)(C)O4)n2)cc(OC)c1OC` the pIC50 was less than 5.00 (Ca2+-ATPase; enzyme activity, inhibitor; pig skeletal muscle).
`[2H]c1c([2H])c([C@]2([2H])CCCN2C(=O)C(C)(C)Oc2ccc3cn[nH]c3c2)c([2H])c([2H])c1C([2H])([2H])[2H]` gave a remaining binding of 86% (Serine/threonine-protein kinase D2 (PRKD2, Homo sapiens, UniProt Q9BZL6); KINOMEscan; 1 µM; reference: DMSO control).
For `Nc1c(Br)cc(Br)cc1CN[C@H]1CC[C@H](O)CC1`, the IC30 was 2.99 µM (Voltage-dependent P/Q-type calcium channel subunit alpha-1A (Homo sapiens, UniProt O00555); ion current, antagonist, automated patch clamp).
With `CCc1nc2ccc(Cl)cn2c1C(=O)Nc1cccc(O)c1F` the ΔTm was 0.04 °C (kasA; thermal stabilization, nanoDSF; 100 µM).
The activation of `CN1CCN(c2cc(-c3ccncc3)c(-c3ccc4ccccc4c3)nn2)CC1` is reported as 0.8% (D(1A) dopamine receptor (DRD1, Homo sapiens, UniProt P21728); agonist, FLIPR; 12.5 µM).
`COc1ccc(N2C(=O)N(c3c(C)cccc3Cl)Cc3cnc(Nc4ccc(C5CCN(C)CC5)cc4OC)nc32)nc1` gave an inhibition of 68% (Ephrin type-B receptor 3 (EPHB3, Homo sapiens, UniProt P54753); kinase activity; 0.5 µM).
The relative abundance of `C[C@H]1CN(c2n[nH]c3nc(N[C@H]4CC[C@H](NS(=O)(=O)CCC(F)(F)F)CC4)ncc23)CCO1` is reported as 1.14 (Sodium/potassium-transporting ATPase subunit alpha-1 (ATP1A1, Homo sapiens, UniProt P05023); inhibitor, Kinobeads competition profiling; 20 µM; reference: vehicle).
`O=C(Nc1cccnn1)N1CCC(=Cc2cccc(Oc3ccc(C(F)(F)F)cn3)c2)CC1` gave a probe labelling of -13.3 (Calumenin (Calu, Rattus norvegicus, UniProt O35783); competitive ABPP with azido-FP probe; rat brain soluble fraction; 0.01 µM, unit not given; reference: DMSO).
Under “grade 3 Tinnitus”, `COc1cc2c(Oc3ccc4[nH]c(C)cc4c3F)ccnc2cc1OCC1(N)CC1` is recorded as 0% (paediatric recurrent refractory sarcoma; concentration not given, whole group).
`CC[C@H](C)[C@@H]1NC(=O)[C@@H]2CCCN2C(=O)[C@H](CC(C)C)NC(=O)[C@H](CC(C)C)NC(=O)CNC(=O)[C@@H](NC(=O)[C@@H](NC(=O)[C@H](CC(=O)O)NC(=O)CNC(=O)[C@@H](NC(=O)[C@H](C)NC(=O)CNC(=O)[C@H](CCCCN)NC(=O)[C@H](CC(C)C)NC(=O)[C@H](CC(C)C)NC(=O)[C@H](CCCCN)NC(=O)CNC(=O)[C@@H](NC(=O)[C@@H](N)CC(C)C)C(C)C)C(C)C)C(C)C)CSSC[C@@H](C(=O)O)NC1=O` — result for “log2 fold change”: -1.05 (RNA-seq, refers to: Gnas mRNA; mouse traumatic brain injury, frontal cortex and hippocampus; dose not given; reference: TBI plus compound vs TBI).
`CCc1nc2ccc(Cl)cn2c1C(=O)N1CC(O)C(C)(C)C1` (stereo not drawn) has a ΔTm of -0.12 °C (kasA; thermal stabilization, nanoDSF; 100 µM).

A few entries again:
`[2H]c1c([2H])c([C@]2([2H])CCCN2C(=O)C(C)(C)Oc2ccc3cn[nH]c3c2)c([2H])c([2H])c1C([2H])([2H])[2H]` gave a remaining binding of 86% (Serine/threonine-protein kinase D2 (PRKD2, Homo sapiens, UniProt Q9BZL6); KINOMEscan; 1 µM; reference: DMSO control).
For `Nc1c(Br)cc(Br)cc1CN[C@H]1CC[C@H](O)CC1`, the IC30 was 2.99 µM (Voltage-dependent P/Q-type calcium channel subunit alpha-1A (Homo sapiens, UniProt O00555); ion current, antagonist, automated patch clamp).
With `CCc1nc2ccc(Cl)cn2c1C(=O)Nc1cccc(O)c1F` the ΔTm was 0.04 °C (kasA; thermal stabilization, nanoDSF; 100 µM).
